Measured values of several laboratories.
Numbers after ± are the reported error.

Cc1cc(C)c(N2CCN(c3c(C)cc(C)cc3C)C2=[Se])c(C)c1.[Cl][Ag]  IC50 (A2780 ADR; MTT; 72 h): 0.7 ± 0.1 µM
O=C(Cc1ccc2ccccc2c1)N[C@H](Cc1ccccc1)C(=O)N[C@H](Cc1ccccc1)C(=O)N[C@H](Cc1ccc(O)cc1)C(=O)N[C@H](Cc1ccc(O)cc1)C(=O)O  IC50 (SAOS-2; cell growth or viability, MTT): > 500 µg/mL
COC(=O)C1CN1S(=O)(=O)c1ccc(N)cc1 (stereo not shown)  IC50 (Caco-2; cell growth or viability, MTT; 48 h): 200 µM
[Cl][Au].[Se]=c1n(C2CCCCC2)ccn1C1CCCCC1  IC50 (LoVo-OXP (oxaliplatin-resistant); MTT; 72 h): 2.1 ± 0.3 µM
C[C@@H](N)[C@H](O)CCCCCCCC(=O)CCCCCCCCCCCCCC[C@@H](O[C@@H]1O[C@H](CO)[C@@H](O)[C@H](O)[C@H]1O)[C@@H](N)CO  IC50 (HCC70; cell growth or viability, resazurin; 96 h): 8.75 µM
C[C@H]1[C@H](OC(=O)CCC(=O)Oc2ccc(C(N)=S)cc2)O[C@@H]2O[C@@]3(C)CC[C@H]4[C@H](C)CC[C@@H]1[C@@]24OO3  IC50 (K562; cell growth or viability, CCK-8; 72 h): 1.03 µM
CNC(=O)c1cc(Oc2ccc(NC(=O)c3cc(-c4ccc(OC(=O)CCC(=O)OC5OC6OC7(C)CCC8C(C)CCC(C5C)C68OO7)cc4)ccn3)cc2)ccn1 (stereo not shown)  IC50 (Hep3B; cell growth or viability, MTT; 72 h): 6.19 µM
CC[C@H](C)[C@H](NC(=O)[C@H](C)NC(=O)[C@@H](N)Cc1c[nH]cn1)C(=O)N[C@@H](Cc1ccc(O)cc1)C(=O)N1CCC[C@H]1C(=O)N[C@@H](CCCNC(=N)N)C(=O)N[C@@H](Cc1c[nH]cn1)C(=O)N[C@H](CO)C(=O)N[C@H](Cc1c[nH]c2ccccc12)C(=O)N[C@@H](C(=O)N[C@H](Cc1c[nH]c2ccccc12)C(=O)N[C@H](CCC(=O)O)C(=O)N[C@H](CCCCN)C(=O)N[C@H](CCCCN)C(=O)N[C@H](CC(C)C)C(=O)N[C@H](CCC(=O)O)C(=O)N[C@@H](C(=O)N[C@H](C)C(=O)N[C@@H](C(=O)N[C@H](CC(N)=O)C(=O)N[C@H](CC(C)C)C(=O)N[C@H](C)C(=O)N[C@H](Cc1c[nH]c2ccccc12)C(=O)N[C@@H](C(=O)N[C@H](C)C(=O)NCC(=O)N[C@H](CC(N)=O)C(=O)N[C@H](CO)C(=O)N[C@H](CC(N)=O)C(=O)N[C@H](CCCCN)C(=O)N[C@H](Cc1c[nH]c2ccccc12)C(=O)N[C@@H](C(=O)N[C@H](Cc1c[nH]c2ccccc12)C(=O)N[C@H](CCCCN)C(=O)O)[C@H](C)O)[C@H](C)O)C(C)C)[C@H](C)O)[C@H](C)O  IC50 (CLL patient PBMCs; cell death, PI staining flow cytometry; 90 min, room temperature, serum-free medium): 1.2 µM
CNC(=O)c1cc(Oc2ccc(NC(=O)c3cc(-c4cccc(OC(=O)CCC(=O)OC5OC6OC7(C)CCC8C(C)CCC(C5C)C68OO7)c4)ccn3)cc2)ccn1 (stereo not shown)  IC50 (Hep3B; cell growth or viability, MTT; 72 h): 8.2 µM
CC[C@H](C)[C@@H]1NC(=O)[C@H](CCCNC(=N)N)NC(=O)C[C@@H](c2cccc3ccccc23)NC(=O)[C@@H]2CSSC[C@H](NC(=O)C[C@@H](c3cccc4ccccc34)NC(=O)[C@H](CCCNC(=N)N)NC(=O)[C@@H]3CCCN3C(=O)[C@@H]3CCCN3C1=O)C(=O)N[C@@H](Cc1ccccc1)C(=O)N1CCC[C@H]1C(=O)N[C@@H](CC(=O)O)C(=O)N[C@@H](CC(=O)O)C(=O)N[C@@H](Cc1ccccc1)C(=O)N2  IC50 (Calu-3; cell growth or viability, ATP luminescence; 72 h): 0.073 µM
CN[C@](C)(C[18F])C(=O)O  tracer uptake (A549 tumour model; host not given, lung; 1 h, tumour-bearing): 1.3 %ID/g
Cc1nn(-c2ccccc2)c(O)c1C(c1ccccc1[N+](=O)[O-])c1c(C)nn(-c2ccccc2)c1O  IC50 (Ishikawa; cell growth or viability, MTT; 48 h): > 40 µM
CC1=C2[C@@H](O)[C@H](C(=O)O)CC[C@@]2(C)CCC1=O  IC50 (human Neutrophil; elastase release, inhibitor): > 10 µM
CC[C@H](C)[C@H](NC(=O)CN)C(=O)NCC(=O)N[C@@H](C)C(=O)N[C@H](C(=O)N[C@@H](CC(C)C)C(=O)N[C@@H](CCCCN)C(=O)N[C@H](C(=O)N[C@@H](CC(C)C)C(=O)N[C@H](C(=O)N[C@H](C(=O)NCC(=O)N[C@@H](CC(C)C)C(=O)N1CCC[C@H]1C(=O)N[C@@H](C)C(=O)N[C@@H](CC(C)C)C(=O)N[C@H](C(=O)N[C@@H](CO)C(=O)N[C@@H](Cc1c[nH]c2ccccc12)C(=O)N[C@H](C(=O)N[C@@H](CCCCN)C(=O)N[C@@H](CCCNC(=N)N)C(=O)N[C@@H](CCCCN)C(=O)N[C@@H](CCCNC(=N)N)C(=O)N[C@@H](CCC(N)=O)C(=O)N[C@@H](CCC(N)=O)C(N)=O)[C@@H](C)CC)[C@@H](C)CC)[C@@H](C)O)[C@@H](C)O)C(C)C)C(C)C  IC50 (MCF7 vector control (FAP-negative); cell viability, MTT; 72 h): 1.4 ± 0.1 µM
Cc1nn(-c2ccccc2)c(O)c1C(c1ccc(N(C)C)cc1)c1c(C)nn(-c2ccccc2)c1O  IC50 (Ishikawa; cell growth or viability, MTT; 48 h): > 40 µM
CN(C)C(=O)c1cncc(N2Cc3cn(Cc4ccc(F)cc4)nc3C2)n1  IC50 (HEK293 expressing GluA1 and GluA2; cell death, CellTox Green; 24 h, with: glutamate, AMPA 10 µM): 0.035 µM
O=C(Nc1ccc(Br)cc1)c1cc(Br)cc(Br)c1O  IC50 (HPNE; cell growth or viability, resazurin; 72 h): 9.14 µM
CC(C)(C)C(=O)OCOP(=O)(OCOC(=O)C(C)(C)C)C1CCCN(O)C1=O (stereo not shown)  IC50 (RCC4 VHL re-expressing; cell growth, crystal violet): 1 µM
Cc1cc(C)c(-n2ccn(-c3c(C)cc(C)cc3C)c2=[Se])c(C)c1.[Cl][Au]  IC50 (H157 spheroids; acid phosphatase; 72 h, 3D spheroid): 7.6 ± 0.8 µM
C[C@H]1C(OCCCC[P+](c2ccccc2)(c2ccccc2)c2ccccc2)O[C@@H]2O[C@@]3(C)CCC4[C@H](C)CCC1[C@]42OO3 (stereo partly shown)  IC50 (OVCAR-3; cell growth or viability, MTT; 72 h): 0.243 µM
CCCC[C@@H]1NC(=O)COC[C@H]2CCCN2C(=O)[C@H](CCCCN)NC(=O)[C@H](CC(C)C)NC(=O)[C@H](CCCCN)NC(=O)[C@H](CC(C)C)NC(=O)[C@H](CCCCN)NC(=O)CN(S(C)(=O)=O)CCNC(=O)[C@H](Cc2c[nH]c3ccccc23)NC(=O)[C@H](C)NC(=O)[C@H](C(C)C)NC(=O)[C@H](C(C)C)NC1=O  IC50 (NCI-H929; viability, TO-PRO-3 staining, flow cytometry): 14.3 µM
Cc1nn(-c2ccccc2)c(O)c1C(c1ccc([N+](=O)[O-])cc1)c1c(C)nn(-c2ccccc2)c1O  IC50 (Ishikawa; cell growth or viability, MTT; 48 h): > 40 µM
C=C(C(=O)O)[C@@H]1CC[C@@]2(C)CCC(=O)C(C)=C2[C@H]1O  IC50 (human Neutrophil; superoxide release, inhibitor, absorbance): > 10 µM
CCC(C)C1OC(=O)C(NC(=O)c2cccc(NC=O)c2O)C(C)OC(=O)C(C(C)CC)OC(=O)C(C)(C)C(=O)C(Cc2ccccc2)OC1=O (stereo not shown)  IC50 (PC-9; cell growth or viability, CCK-8; 72 h): 0.0308 µM
O=C(C[P+]([Au-][Cl])(c1ccccc1)c1ccccc1)[O][Ti+2][O]C(=O)C[P+]([Au-][Cl])(c1ccccc1)c1ccccc1.c1cc[cH-]c1.c1cc[cH-]c1  IC50 (CAKI-1; cell viability, XTT; 72 h): 2.2 µM
COc1cccc2c1C(=O)c1c(O)c3c(c(O)c1C2=O)C[C@@](O)(C(=O)CO)C[C@@H]3O[C@H]1C[C@H](NC(=O)CCN2C(=O)CC(SC[C@H](N)C(=O)N3CCC[C@H]3C(=O)N[C@@H](CCCCN)C(=O)N[C@@H](CCCCN)C(=O)N[C@@H](CCCCN)C(=O)N[C@@H](CCCNC(=N)N)C(=O)N[C@@H](CCCCN)C(=O)N[C@H](C(N)=O)C(C)C)C2=O)[C@H](O)[C@H](C)O1 (stereo partly shown)  IC50 (MCF7/ADR doxorubicin-resistant; CCK-8; 48 h, doxorubicin-equivalent dose): 16.5 ± 1.73 µM
CNC(=O)c1cc(Oc2ccc(NC(=O)c3cc(-c4ccc(COC(=O)CCC(=O)OC5OC6OC7(C)CCC8C(C)CCC(C5C)C68OO7)cc4)ccn3)cc2)ccn1 (stereo not shown)  IC50 (Hep3B; cell growth or viability, MTT; 72 h): 10.9 µM
NC1CCCCC1N.O=C1[O][Pt]([O]C(=O)c2ccc(P(c3ccccc3)c3ccccc3)cc2)([O]C(=O)c2ccc(P(c3ccccc3)c3ccccc3)cc2)[O]C1=O.[Cl][Au].[Cl][Au]  IC50 (MDA-MB-157; cell growth or viability, resazurin; 72 h): 3.9 µM
CC[C@H](C)[C@H](NC(=O)CNC(=O)[C@H](C)NC(=O)[C@@H]1CCCN1C(=O)CNC(=O)[C@H](C)NC(=O)[C@H](CCC(=O)O)NC(=O)[C@H](C)NC(=O)[C@H](CC(=O)O)NC(=O)[C@H](C)NC(=O)[C@H](CCC(=O)O)NC(=O)[C@H](C)NC(=O)[C@H](CCC(=O)O)NC(=O)[C@@H]1CCCN1C(=O)[C@H](CCC(=O)O)NC(=O)CNC(C)=O)C(=O)NCC(=O)N[C@@H](C)C(=O)N[C@H](C(=O)N[C@@H](CC(C)C)C(=O)N[C@@H](CCCCN)C(=O)N[C@H](C(=O)N[C@@H](CC(C)C)C(=O)N[C@H](C(=O)N[C@H](C(=O)NCC(=O)N[C@@H](CC(C)C)C(=O)N1CCC[C@H]1C(=O)N[C@@H](C)C(=O)N[C@@H](CC(C)C)C(=O)N[C@H](C(=O)N[C@@H](CO)C(=O)N[C@@H](Cc1c[nH]c2ccccc12)C(=O)N[C@H](C(=O)N[C@@H](CCCCN)C(=O)N[C@@H](CCCNC(=N)N)C(=O)N[C@@H](CCCCN)C(=O)N[C@@H](CCCNC(=N)N)C(=O)N[C@@H](CCC(N)=O)C(=O)N[C@@H](CCC(N)=O)C(N)=O)[C@@H](C)CC)[C@@H](C)CC)[C@@H](C)O)[C@@H](C)O)C(C)C)C(C)C  IC50 (MCF7 FAP-transfected; cell viability, MTT; 72 h): 6.1 ± 0.3 µM
O=C1[O][Pt]2([OH])([OH])([NH]C3CCCCC3[NH]2)[O]C1=O (stereo not shown)  IC50 (CAKI-1; cell growth or viability, resazurin; 72 h): > 100 µM
CC[C@@H](C)[C@@H](NC(=O)[C@@H](Cc1c[nH]c2ccccc12)NC(=O)[C@H](N)CCCNC(=N)N)C(=O)N[C@H](CCSC)C(=O)N[C@H](Cc1ccc(O)cc1)C(=O)N[C@H](Cc1ccccc1)C(N)=O  IC50 (SK-BR-3; cell growth or viability, trypan blue): 10 µM
